Results from different studies.
Compare with care: the assays were run in different laboratories. Values joined by “and” are separate records of one study, mostly repeats; a detail may differ. ± gives the spread as reported.

C[C@@H](c1ncncc1F)[C@](O)(Cn1cncn1)c1ccc(F)cc1F
drug-related TEAE incidence (refers to: Hallucinations; human; oral, 200 mg): 0%

Cn1cc(-c2ccc(-c3cncc(Cl)c3N3CCC4(CCNC4=O)CC3)cc2)cn1
log2 fold change (COLO 205; gene expression, microarray, refers to: PLAUR mRNA; concentration not given, 2 h; reference: untreated cells): 2.02

CCn1cc(C(=O)N2CCOCC2)c(=O)c2cc(NC3Cc4ccccc4C3)cnc21
AUC(0-12) (human, fed; oral suspension, 1200 mg/day twice daily, day 1, arithmetic mean): 8680 ng·h/mL

O=C(O)CCCOc1ccc([18F])cc1-c1cc(-c2ccccc2C(F)(F)F)n(-c2ccccc2)n1
radioactivity uptake (gamma counting; male ddY mice, muscle; intravenous, 2.1 MBq, 15 min): 0.91 ± 0.11 SUV

C=CC(=O)N(C)CCOc1c(N)ncnc1-c1cc(F)cc(NC(=O)c2ccc(C3CC3)cc2F)c1C
AUC (human, plasma; oral, 15 mg single dose): 25.1 ng·h/mL

COc1ccc(Cl)cc1C(=O)NCCc1ccc(S(=O)(=O)NC(=O)NC2CCCCC2)cc1 [carbon-11 labelled]
liver to blood rate constant (population PK model; humans; fixed pancreas and spleen ratios): 30 h⁻¹

CNC(=O)c1cc(Oc2ccc(NC(=O)Nc3cc(C(C)(C)C)nn3-c3ccc4ncccc4c3)c(F)c2)ccn1
patients with nervous system disorder AE (refers to: worst grade 1; human; oral, dose not given, cycles 1 and 2, Medium Cmax subgroup): 33%

CC(C)(C(=O)N1CCOc2c(C#N)cncc2C1)C(F)F
subjects with adverse event (refers to: abdominal discomfort; human; oral, 10 mg once daily, 14 days, multiple ascending dose): 0%

COc1ccnc(C(N)=O)c1O
Freundlich coefficient KF (soil adsorption; soil; pH 6.9, organic carbon 0.8 %): 14.2 mL/g

CC(=O)c1c(C)c2cnc(Nc3ccc(N4CCNCC4)cn3)nc2n(C2CCCC2)c1=O
volume of distribution (G-Smo medulloblastoma mice (hGFAP-Cre x SmoM2), serum; intraperitoneal, 25 mg/kg single, dosed at postnatal day P10): 8.45 mL

CCc1cc(C(=O)NC)c2nccc(N3CCc4c(cc(Cn5ccnc5)cc4-c4cn(C)nc4C(F)(F)F)C3=O)c2c1
kidney weight (Sprague Dawley rat; oral, 100 mg/kg once daily, 7 days): 2.59 ± 0.061 g

O=C(Nc1nc2cccc(-c3ccc(CN4CCS(=O)(=O)CC4)cc3)n2n1)C1CC1
treatment-emergent adverse events (refers to: cystitis; human rheumatoid arthritis patients; oral, 150 mg once daily, 4 weeks, regardless of relatedness): 0%

Cc1cc(-c2nccc3c2ccn3CC(=O)Nc2ccc(-c3cnccn3)cn2)ccn1
subjects with Photophobia adverse event (human; 5 mg once daily, multiple ascending dose): 0%

CNC(=O)c1cccc(-c2ccc([C@@H](O)[C@H]3O[C@H](CO)[C@@H](O)[C@H](O)[C@@H]3O)c(C)c2)c1
terminal half-life (Sprague-Dawley rat, male, plasma; oral, 10 mg/kg): 3.56 h and 3.81 h and 3.22 h

NC1(C(=O)N[C@@H](CCO)c2ccc(Cl)cc2)CCN(c2nc[nH]c3nccc2-3)CC1
incidence of Fatigue (metastatic CRPC patients; 400 mg b.i.d., any grade, treatment-related, with: enzalutamide 160 mg daily): 57.1%

COc1nnc2ccc(N3CCC(c4ccc(OCCN5CCN(C)C(=O)[C@H]5C)cc4)CC3)nn12
urinary recovery of unchanged drug (cancer patients, urine; oral, dose not given, time not given; reference: dose): < 2%

CCN1/C(=C/C(C)=O)Sc2ccc(F)cc21
QRS duration (cynomolgus monkey; oral, 100 mg/kg, 24 h post-dose): 35 ± 1 ms

CC(C)Cc1ccc(CNS(=O)(=O)c2ccccc2C(=O)O)cc1
DLS scattered light intensity (colloidal aggregate formation, dynamic light scattering; 50 mM potassium phosphate buffer; 200 µM, pH 7.0, 1% DMSO; higher = more aggregation): 559000 counts/s

Cc1cc(-c2nnc(N)nc2-c2ccc(F)cc2)cc(Cl)n1
patients with treatment-related AE (human, IO-naive mCRPC; oral, dose not given, phase Ia/Ib, any grade): 80%

Cc1cccc(CNC(=O)c2cn(CCNC(=O)c3ccccc3Sc3c([N+](=O)[O-])ncn3C)c3cc4c(cc3c2=O)OC(F)(F)O4)n1
Vdss (Sprague-Dawley rat, male, plasma; intravenous, 5 mg/kg): 10.2 ± 1.64 L/kg

CNc1ccc(-c2nc3ccc(O)cc3s2)cc1 [carbon-11 labelled]
SUV (microPET/CT imaging; B6SJL mouse, normal, heart; intravenous, 5 min): 1.13 ± 0.351

C[C@H](CS)C(=O)N1CCC[C@H]1C(=O)O
QTc interval (male Hartley guinea pig, anaesthetized; intravenous infusion, 3 mg/kg, 10 min infusion, post-infusion): 349 ± 0.4 ms

O=C(Nc1cnccc1Cl)N1CCN(Cc2ccc3c(c2)OC(F)(F)O3)CC1
adverse event incidence (refers to: Headache; human healthy young men; 75 mg, multiple dose): 50%

Cc1ccc([C@@H]2O[C@H](CO)[C@@H](O)[C@H](O)[C@H]2O)cc1Cc1ccc(-c2ccc(F)cc2)s1
urinary calcium excretion change (Japanese type 2 diabetes patients; 25 mg, day 4, 24 h urine collection; reference: baseline): -25.6 mg

CNC(=O)c1cc(Oc2ccc(NC(=O)Nc3ccc(Cl)c(C(F)(F)F)c3)cc2)cc[n+]1[O-]
AUC(0-7.5 h) (mouse, Oatp1b2 knockout, plasma; oral, 10 mg/kg, without rifampin, geometric mean): 190 ng·h/mL

COc1ccc([C@@H](O)c2cc(-c3ncnc4cc(N5CCOCC5)ccc34)c(F)cc2Cl)nn1
drug-related gastrointestinal AE (locally advanced rectal cancer patients; 50 mg, with: capecitabine and radiotherapy): 100%

O=C(O)CCCCCCCCCCCCC(=O)O
daily mean concentration (human, plasma; endogenous baseline diurnal): 83.1 ± 13.9 nM

O=C(c1cccnc1-c1ccncc1)N1CCC(O)(Cc2ccccc2)CC1
CL/F (healthy Japanese adults, plasma; oral, 100 mg twice daily, day 7): 552 L/h

CN1C[C@H](COc2nccc3c(NCc4ccco4)cc(Cl)nc23)OC1=O
QRS interval (rabbit NZW female, isolated Langendorff heart; 10 µM, 15 min): 32 ms

O=C(NCC1(C(=O)O)CCC1)Nc1cc(-c2ccccc2)on1
DLS scattered light intensity (colloidal aggregate formation, dynamic light scattering; 50 mM potassium phosphate buffer; 200 µM, pH 7.0, 1% DMSO; higher = more aggregation): 1.29e+06 counts/s

Cc1nnc(SCC2=C(C(=O)O)N3C(=O)[C@@H](NC(=O)Cn4cnnn4)[C@H]3SC2)s1
deviation from nominal concentration (human whole blood; concentration not given, 48 h, 4 °C): -1.5%

C[C@@H]1CN(c2c(F)c(N)c3c(=O)c(C(=O)O)cn(C4CC4)c3c2F)C[C@H](C)N1
QTc interval (male Hartley guinea pig, anaesthetized; intravenous infusion, 10 mg/kg, 10 min infusion, post-infusion): 366 ± 0.6 ms

O=c1[nH]c(=O)n([C@H]2C[C@H](O)[C@@H](CO)O2)cc1CCCCC[18F]
blood concentration (CD-1 nu/nu male mice, RG2 tumour, blood; intravenous, dose not given, 2 h, co-injection): 0.16 ± 0.05 %ID/g

Cc1cnc(N2CC3(CCOCC3)C2)c(C(=O)Nc2ccc(C(=O)N3CCc4cc(C(=O)Nc5c(C)cccc5F)sc4-c4ccccc43)cc2)c1
concentration (human, nasal epithelial lining fluid; inhaled, 5 mg twice daily, 72 h): 18000 ng/mL

Cc1c(C(=O)O)ccc2c3n(nc12)[C@@H]1[C@H](C3)N(CC2CC2)[C@@]2(C(=O)Nc3cc(Cl)ccc32)[C@H]1c1cccc(Cl)c1F
AUC(0-t) (female BALB/c nude mice, SJSA-1 xenograft, plasma; oral, 1 mg/kg twice daily, 2 doses, individual animals): 24.2 µM·h

COC(=O)Nc1cccc(NS(=O)(=O)c2cc(Cl)cc(Cl)c2O)c1C
DLS scattered light intensity (colloidal aggregate formation, dynamic light scattering; 50 mM potassium phosphate buffer; 200 µM, pH 7.0, 1% DMSO; higher = more aggregation): 727000 counts/s

C=CCN1CC(=O)N2[C@@H](Cc3ccc(O)cc3F)C(=O)N(Cc3cccc(N4CC(N5CCN(CC)CC5)C4)n3)C[C@@H]2N1C(=O)NCc1ccccc1
treatment-related adverse events (refers to: Malaise; advanced solid tumour patients; oral, 100 mg twice daily, expansion part, any grade): 0%

CNCc1ccc(-c2[nH]c3cc(F)cc4c3c2CCNC4=O)cc1
asthenia/fatigue incidence (patients; oral, 360 mg twice daily, all grades): 62.5%

O=C1Cc2cc(CCN3CCN(c4nsc5ccccc45)CC3)c(Cl)cc2N1
QTc interval (male Hartley guinea pig, anaesthetized; intravenous, 1 mg/kg, baseline before infusion): 369 ± 0.2 ms

Cc1c(-c2ccc(N3CCc4cccc(C(=O)Nc5nc6ccccc6s5)c4C3)nc2C(=O)O)cnn1CC12CC3(C)CC(C)(C1)CC(OCCNCC[C@H](O)CO)(C3)C2
PR interval change (beagle dog, anaesthetised; intravenous infusion, 0.3 mg/kg/min, 120 min; reference: vehicle): 1 ms

C=CC1(C)CC(OC(=O)CSc2ccc(N)cc2)C2(C)C(C)CCC3(CCC(=O)C32)C(C)C1O (stereo not shown)
HC50 (haemolysis; sheep erythrocytes; 1 h, pH 7.5): > 128 µg/mL

CC(C)c1nc(N(C)S(C)(=O)=O)nc(-c2ccc(F)cc2)c1/C=C/[C@@H](O)C[C@@H](O)CC(=O)O
moderate TEAE incidence (healthy human volunteers; oral, 10 mg, 6 days, monotherapy; reference: subjects): 0%

N#Cc1ccc2c(c1)[C@H]1CCCN(C(=O)c3ccc4[nH]cnc4c3)[C@H]1C2
total testosterone level (human females; 40 mg, end of trial): 1 nmol/L

O=C1NCCc2nc(OCc3cccc(F)c3)ccc21
Irwin test score (refers to: loss of Escape; Sprague-Dawley rat male; oral, 100 mg/kg, 4 h; direction not given): 0.4

Cc1cc(F)c(NS(=O)(=O)c2cc(Cl)cc(Cl)c2O)cc1[N+](=O)[O-]
DLS scattered light intensity (colloidal aggregate formation, dynamic light scattering; 50 mM potassium phosphate buffer; 200 µM, pH 7.0, 1% DMSO; higher = more aggregation): 1.56e+07 counts/s

OC[C@H]1O[C@@H](c2ccc(Cl)c(Cc3ccc(O[C@H]4CCOC4)cc3)c2)[C@H](O)[C@@H](O)[C@@H]1O
difference in V3/F (population PK model; human, plasma; oral; reference: male patients, female relative to male): 83%

For quick reference, copied from above:
O=C(O)CCCOc1ccc([18F])cc1-c1cc(-c2ccccc2C(F)(F)F)n(-c2ccccc2)n1
radioactivity uptake (gamma counting; male ddY mice, muscle; intravenous, 2.1 MBq, 15 min): 0.91 ± 0.11 SUV

C=CC(=O)N(C)CCOc1c(N)ncnc1-c1cc(F)cc(NC(=O)c2ccc(C3CC3)cc2F)c1C
AUC (human, plasma; oral, 15 mg single dose): 25.1 ng·h/mL

COc1ccc(Cl)cc1C(=O)NCCc1ccc(S(=O)(=O)NC(=O)NC2CCCCC2)cc1 [carbon-11 labelled]
liver to blood rate constant (population PK model; humans; fixed pancreas and spleen ratios): 30 h⁻¹

CNC(=O)c1cc(Oc2ccc(NC(=O)Nc3cc(C(C)(C)C)nn3-c3ccc4ncccc4c3)c(F)c2)ccn1
patients with nervous system disorder AE (refers to: worst grade 1; human; oral, dose not given, cycles 1 and 2, Medium Cmax subgroup): 33%
